Experimental data collected from several papers.
Each numbered part is a random draw from the data of one study; scales do not carry over between parts. Positions count from the first letter of the parent shown.

Sample 1
Target: Sal-like protein 4, full length isoform B (SALL4, Homo sapiens, UniProt Q9UJQ4-2, residues 1-616)
Method: universal PBM
Form: double-stranded DNA, one strand shown
Medium: in vitro
Tested at: not given
Setting: 8-mer, flanks averaged, mean of replicates
Direction: higher = stronger binding
Target sequence (chain): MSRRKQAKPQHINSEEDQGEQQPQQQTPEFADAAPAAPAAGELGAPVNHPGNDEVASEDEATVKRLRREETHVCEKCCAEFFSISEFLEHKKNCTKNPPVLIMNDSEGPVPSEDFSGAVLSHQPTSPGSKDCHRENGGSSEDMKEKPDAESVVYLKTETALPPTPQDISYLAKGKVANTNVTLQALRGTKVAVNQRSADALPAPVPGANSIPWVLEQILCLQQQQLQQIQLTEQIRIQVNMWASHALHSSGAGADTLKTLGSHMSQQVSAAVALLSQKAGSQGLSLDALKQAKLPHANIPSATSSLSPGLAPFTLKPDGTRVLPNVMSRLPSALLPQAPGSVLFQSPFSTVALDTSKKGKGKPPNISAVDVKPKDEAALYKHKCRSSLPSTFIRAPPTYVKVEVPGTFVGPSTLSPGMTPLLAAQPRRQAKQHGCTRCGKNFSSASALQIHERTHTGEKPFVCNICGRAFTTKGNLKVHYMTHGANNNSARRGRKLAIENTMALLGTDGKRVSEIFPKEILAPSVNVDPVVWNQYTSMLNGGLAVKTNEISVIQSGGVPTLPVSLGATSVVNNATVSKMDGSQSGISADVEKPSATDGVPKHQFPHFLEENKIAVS
The E-score of `GTTGATCA` is reported as 0.0711.
`GAGCGCTC` gave an E-score of -0.26.
For `CAAAGATA`, the E-score was 0.208.
With `GAGAGATC` the E-score was -0.125.

Sample 2
Target: CCND2, cyclin fold, Cln2 fusion (human)
Method: yeast growth competition, sequencing
Medium: yeast
Setting: weak parent motif
Baseline: not given
Direction: higher = stronger binding
Parent: GMNC docking peptide (human); KNAKRNLSSEFAN; partner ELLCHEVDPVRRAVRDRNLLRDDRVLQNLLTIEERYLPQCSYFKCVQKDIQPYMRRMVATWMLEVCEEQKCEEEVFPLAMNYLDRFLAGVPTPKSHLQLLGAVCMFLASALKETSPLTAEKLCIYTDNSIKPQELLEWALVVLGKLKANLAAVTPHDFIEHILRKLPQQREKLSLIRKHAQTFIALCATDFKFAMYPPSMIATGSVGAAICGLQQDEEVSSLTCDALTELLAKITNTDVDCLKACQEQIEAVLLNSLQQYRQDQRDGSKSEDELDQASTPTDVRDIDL
Under “normalised enrichment score”, `KNAIRNLSSEFAN [K4I]` is recorded as 0.778.
`KNAKRNLHSEFAN [S8H]` — result for “normalised enrichment score”: -0.00547.
Under “normalised enrichment score”, `KCAKRNLSSEFAN [N2C]` is recorded as 0.203.
Under “normalised enrichment score”, `KNAKRNHSSEFAN [L7H]` is recorded as -0.0909.
`KNAKRNLSLEFAN [S9L]`: “normalised enrichment score” 0.452.
Under “normalised enrichment score”, `KNAKCNLSSEFAN [R5C]` is recorded as 0.0534.

Sample 3
Target: Fragile X messenger ribonucleoprotein 1, C-terminal low-complexity region (Fmr1, Mus musculus, UniProt P35922)
Method: RNA Bind-n-Seq
Form: RNA
Medium: in vitro
Tested at: 200 nM
Setting: whole 134-nt RNA, ends assumed
With: 150 mM KCl
Baseline: input library
Direction: higher = stronger binding
`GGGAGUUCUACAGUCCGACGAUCUGGUUCUGGCAUUUAUGACCCUUGUGAAAAAGAAGCCACUGAUGCUAUUGGGCAUCUAGACAGACAGCAACGGGAAGAUAUCACACAGAGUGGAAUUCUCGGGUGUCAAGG` gave a log2 enrichment of -0.33.
With `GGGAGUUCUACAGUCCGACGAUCCACAGACAACACGCACCCACACAGACACAGAGGGAAGGGGUUGGGAUGGGGACAAAGUGCACAGCAGGGCGGGGUAGGACCCCAGCCCCUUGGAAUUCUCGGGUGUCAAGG` the log2 enrichment was 1.26.
For `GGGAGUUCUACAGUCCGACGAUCUAACUUUAGAGGAGGAUCUGAUGGAUAUGGCAGUGGACGUGGAUUUGGGGAUGGCUAUAAUGGGUACGGAGGAGGACCUGGAGGUGGCAAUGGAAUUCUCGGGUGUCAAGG`, the log2 enrichment was 0.177.
`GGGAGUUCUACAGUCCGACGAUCCAAGUCCUGUGCUACACAUCGUAUGUACCGAAUCGGCCCGGCCCGGGGCCCGGGGAAAGUAUUAUGUUACGCCGUUCGGAUCUGCACUUCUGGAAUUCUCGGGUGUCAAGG` gave a log2 enrichment of -0.167.
The log2 enrichment of `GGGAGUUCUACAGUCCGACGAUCUGGCCCUGGUGGCAUGCGGGGAGGAAGAGGUGGCCUCAGGGAUCGUGGUGGUCCCGGUGGAAUGUUCAGAGGUGGCCGUGGUGGAGACAGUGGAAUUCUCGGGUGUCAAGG` is reported as -0.196.

Single results of other studies
`PhoQ, residues 284 288 289 292 302 303 SMMNNA` gave a fold induction of 13.1 (PhoP, residues 12 14 15 18 19 GQAIL (Escherichia coli, UniProt P23836); Sort-seq, measured: YFP reporter; E. coli; PhoQ-PhoP variant library, with: 10 µM Mg2+; baseline: high Mg2+ state, higher = stronger signaling).
